Measured values collected from several papers.
Numbered parts are unrelated; each lists some results of a single study. Values joined by “and” are separate records of one study, mostly repeats; a detail may differ.
Sequence of UniProt P08922 (whole entry, looked up): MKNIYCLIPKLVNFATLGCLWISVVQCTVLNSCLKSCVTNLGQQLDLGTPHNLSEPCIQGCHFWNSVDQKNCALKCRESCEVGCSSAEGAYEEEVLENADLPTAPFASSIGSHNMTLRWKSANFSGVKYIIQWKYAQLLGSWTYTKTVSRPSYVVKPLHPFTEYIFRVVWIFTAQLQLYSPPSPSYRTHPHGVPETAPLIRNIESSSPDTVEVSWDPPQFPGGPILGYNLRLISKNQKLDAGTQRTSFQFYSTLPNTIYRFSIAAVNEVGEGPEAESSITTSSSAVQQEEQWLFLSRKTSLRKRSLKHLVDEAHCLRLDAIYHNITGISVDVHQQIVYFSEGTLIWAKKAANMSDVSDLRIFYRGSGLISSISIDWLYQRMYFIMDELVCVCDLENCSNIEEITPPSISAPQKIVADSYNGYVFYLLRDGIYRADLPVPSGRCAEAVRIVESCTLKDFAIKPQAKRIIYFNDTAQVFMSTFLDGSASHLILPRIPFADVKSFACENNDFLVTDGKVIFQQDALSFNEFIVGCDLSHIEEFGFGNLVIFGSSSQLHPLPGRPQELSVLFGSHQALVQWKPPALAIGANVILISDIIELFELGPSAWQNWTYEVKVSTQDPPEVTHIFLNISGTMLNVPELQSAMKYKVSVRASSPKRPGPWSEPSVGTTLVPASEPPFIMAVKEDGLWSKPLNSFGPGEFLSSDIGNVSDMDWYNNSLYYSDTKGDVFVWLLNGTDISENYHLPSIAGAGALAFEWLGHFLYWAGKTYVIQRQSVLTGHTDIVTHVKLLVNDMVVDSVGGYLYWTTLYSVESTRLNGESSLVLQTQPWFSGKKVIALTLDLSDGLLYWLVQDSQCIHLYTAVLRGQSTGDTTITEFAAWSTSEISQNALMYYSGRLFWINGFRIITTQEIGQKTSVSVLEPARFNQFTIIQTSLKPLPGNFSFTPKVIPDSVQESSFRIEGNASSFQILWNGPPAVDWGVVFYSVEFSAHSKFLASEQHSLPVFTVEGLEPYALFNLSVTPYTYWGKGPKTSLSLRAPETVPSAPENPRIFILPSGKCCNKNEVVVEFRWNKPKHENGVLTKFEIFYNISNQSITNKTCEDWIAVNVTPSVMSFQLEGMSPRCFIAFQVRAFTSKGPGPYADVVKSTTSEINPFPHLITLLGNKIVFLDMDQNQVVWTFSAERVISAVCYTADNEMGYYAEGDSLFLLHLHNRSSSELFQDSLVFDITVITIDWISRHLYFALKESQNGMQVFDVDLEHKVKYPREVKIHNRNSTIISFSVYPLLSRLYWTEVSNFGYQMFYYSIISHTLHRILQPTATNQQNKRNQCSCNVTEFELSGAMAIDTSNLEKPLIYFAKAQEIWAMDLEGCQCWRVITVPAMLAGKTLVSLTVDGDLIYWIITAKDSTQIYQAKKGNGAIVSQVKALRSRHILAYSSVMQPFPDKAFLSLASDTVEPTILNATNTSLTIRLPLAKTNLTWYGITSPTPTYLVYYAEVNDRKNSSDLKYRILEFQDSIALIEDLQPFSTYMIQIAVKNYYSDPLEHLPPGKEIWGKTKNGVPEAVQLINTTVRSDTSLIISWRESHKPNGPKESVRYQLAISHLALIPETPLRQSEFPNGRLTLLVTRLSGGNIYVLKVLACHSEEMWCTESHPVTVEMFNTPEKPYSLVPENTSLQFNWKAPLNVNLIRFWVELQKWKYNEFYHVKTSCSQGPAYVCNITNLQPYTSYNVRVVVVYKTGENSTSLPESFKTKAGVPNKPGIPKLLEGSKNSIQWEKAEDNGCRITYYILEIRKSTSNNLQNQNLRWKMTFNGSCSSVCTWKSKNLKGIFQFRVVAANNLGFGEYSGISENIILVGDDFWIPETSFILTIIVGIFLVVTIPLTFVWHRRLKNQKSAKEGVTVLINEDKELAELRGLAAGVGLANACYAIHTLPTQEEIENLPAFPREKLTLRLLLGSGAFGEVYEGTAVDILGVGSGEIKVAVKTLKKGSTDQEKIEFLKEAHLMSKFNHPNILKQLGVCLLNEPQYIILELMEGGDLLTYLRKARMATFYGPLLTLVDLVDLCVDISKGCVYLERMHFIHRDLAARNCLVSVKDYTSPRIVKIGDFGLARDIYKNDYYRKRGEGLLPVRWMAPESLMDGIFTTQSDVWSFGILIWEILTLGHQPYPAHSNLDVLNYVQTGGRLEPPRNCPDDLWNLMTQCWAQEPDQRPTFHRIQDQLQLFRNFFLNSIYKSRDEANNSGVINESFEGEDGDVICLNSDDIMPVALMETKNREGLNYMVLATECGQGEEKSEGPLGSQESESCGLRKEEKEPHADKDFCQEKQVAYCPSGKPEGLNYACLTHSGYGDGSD
Sequence of UniProt P9WI81 (whole entry, looked up): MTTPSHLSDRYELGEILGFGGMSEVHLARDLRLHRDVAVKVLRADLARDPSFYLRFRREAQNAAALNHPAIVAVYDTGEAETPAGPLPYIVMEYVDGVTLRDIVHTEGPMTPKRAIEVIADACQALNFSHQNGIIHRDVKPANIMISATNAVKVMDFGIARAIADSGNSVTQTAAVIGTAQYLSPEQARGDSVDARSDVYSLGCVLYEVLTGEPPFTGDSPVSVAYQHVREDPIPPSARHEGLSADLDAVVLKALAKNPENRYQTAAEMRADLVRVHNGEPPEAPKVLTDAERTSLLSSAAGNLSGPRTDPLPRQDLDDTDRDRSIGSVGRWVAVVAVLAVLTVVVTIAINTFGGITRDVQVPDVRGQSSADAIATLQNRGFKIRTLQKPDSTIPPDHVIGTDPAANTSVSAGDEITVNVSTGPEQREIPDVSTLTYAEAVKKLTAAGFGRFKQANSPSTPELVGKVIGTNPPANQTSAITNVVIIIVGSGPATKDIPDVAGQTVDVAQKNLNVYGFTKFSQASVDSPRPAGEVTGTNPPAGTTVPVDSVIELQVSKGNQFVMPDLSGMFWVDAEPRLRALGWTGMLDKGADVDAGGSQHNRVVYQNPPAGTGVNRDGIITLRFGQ
Sequence of UniProt O14965 (whole entry, looked up): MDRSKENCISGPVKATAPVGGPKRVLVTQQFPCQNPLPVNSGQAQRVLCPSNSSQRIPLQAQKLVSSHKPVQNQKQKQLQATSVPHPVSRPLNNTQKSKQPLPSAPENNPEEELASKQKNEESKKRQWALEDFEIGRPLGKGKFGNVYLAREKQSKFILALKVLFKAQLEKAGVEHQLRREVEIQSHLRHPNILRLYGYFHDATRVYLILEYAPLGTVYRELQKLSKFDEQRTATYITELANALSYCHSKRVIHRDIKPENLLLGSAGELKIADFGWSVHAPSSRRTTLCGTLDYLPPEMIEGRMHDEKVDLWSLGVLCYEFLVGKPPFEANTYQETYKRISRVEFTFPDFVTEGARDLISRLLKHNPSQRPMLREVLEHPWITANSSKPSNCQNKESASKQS
Sequence of UniProt Q9NR20 (whole entry, looked up): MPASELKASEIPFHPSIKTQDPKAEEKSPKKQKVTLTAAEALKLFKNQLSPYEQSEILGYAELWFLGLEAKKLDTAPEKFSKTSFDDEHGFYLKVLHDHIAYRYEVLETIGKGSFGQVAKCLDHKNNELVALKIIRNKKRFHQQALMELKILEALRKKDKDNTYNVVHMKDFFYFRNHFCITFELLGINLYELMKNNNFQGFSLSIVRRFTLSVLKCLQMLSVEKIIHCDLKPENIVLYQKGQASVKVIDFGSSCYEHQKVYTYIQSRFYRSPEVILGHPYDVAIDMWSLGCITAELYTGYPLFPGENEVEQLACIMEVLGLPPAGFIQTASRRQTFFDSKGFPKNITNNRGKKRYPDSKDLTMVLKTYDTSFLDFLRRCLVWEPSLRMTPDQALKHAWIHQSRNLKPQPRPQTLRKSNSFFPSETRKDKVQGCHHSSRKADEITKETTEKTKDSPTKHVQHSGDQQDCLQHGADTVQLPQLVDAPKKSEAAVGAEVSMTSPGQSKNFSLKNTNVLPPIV
Sequence of UniProt P19784 (whole entry, looked up): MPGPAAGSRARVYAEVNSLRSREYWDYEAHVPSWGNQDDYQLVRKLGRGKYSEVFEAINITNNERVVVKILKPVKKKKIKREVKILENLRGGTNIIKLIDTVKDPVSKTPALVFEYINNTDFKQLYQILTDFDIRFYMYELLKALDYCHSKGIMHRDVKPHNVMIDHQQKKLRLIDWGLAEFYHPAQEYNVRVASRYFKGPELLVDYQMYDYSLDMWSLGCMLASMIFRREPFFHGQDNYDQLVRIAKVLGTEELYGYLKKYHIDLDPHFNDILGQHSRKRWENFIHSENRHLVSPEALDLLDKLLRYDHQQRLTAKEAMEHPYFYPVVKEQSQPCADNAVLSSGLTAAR

Study 1
SMILES: CN[C@@H]1C[C@H]2O[C@@](C)([C@@H]1OC)n1c3ccccc3c3c4c(c5c6ccccc6n2c5c31)C(=O)NC4
Tested at: 0.5 µM
target | read-out | mode | with | relative to | remaining activity
Aurora kinase A (AURKA, Homo sapiens, UniProt O14965) | enzyme activity | inhibitor | – | control | 2.44%
Activated CDC42 kinase 1 (TNK2, Homo sapiens, UniProt Q07912) | kinase activity | – | ATP 10 µM | untreated | 2.17%
Casein kinase II subunit alpha' (CSNK2A2, Homo sapiens, UniProt P19784) | enzyme activity | inhibitor | – | control | 87.8%
Proto-oncogene tyrosine-protein kinase ROS (ROS1, Homo sapiens, UniProt P08922) | enzyme activity | inhibitor | – | control | 0.859% and 6.53%
Dual specificity tyrosine-phosphorylation-regulated kinase 4 (DYRK4, Homo sapiens, UniProt Q9NR20) | enzyme activity | inhibitor | – | control | 96.4%

Study 2
Cell line: HEK-293T
Read-out: pseudovirus infection
Technique: FDA-approved drug library counter-screen
Organism: VSV pseudotyped with VSV-G
Tested at: 10 µM
Time: 16 h
Relative to: vehicle-treated
SMILES | GFP-positive cells [%]
CCCCOc1ccc(OCCCN2CCOCC2)cc1 | 109
Nc1nc(Cl)nc2c1ncn2[C@@H]1O[C@H](CO)[C@@H](O)[C@@H]1F | 92.4
C[C@H](CCC(=O)O)[C@H]1CC[C@H]2[C@@H]3[C@H](O)C[C@@H]4C[C@H](O)CC[C@]4(C)[C@H]3CC[C@]12C | 90.9
CN1CCCC(n2nc(Cc3ccc(Cl)cc3)c3ccccc3c2=O)CC1 (centres unmarked) | 102
Cc1nc2n(c(=O)c1CCN1CCC(c3noc4cc(F)ccc34)CC1)CCCC2O (centres unmarked) | 123
O=c1[nH]c(=O)n([C@H]2C[C@H](O)[C@@H](CO)O2)cc1I | 95.1
CCOC(=O)c1ccc(C#Cc2ccc3c(c2)C(C)(C)CCS3)nc1 | 138
Cc1cc(C)nc(NS(=O)(=O)c2ccc(N)cc2)n1 | 83.9
Oc1c(Cl)cc(Cl)c2cccnc12 | 45.4
C[C@H]1O[C@H](O[C@H]2[C@H](O)[C@@H](O)[C@@H](O[C@H]3[C@H](O)[C@@H](O)C(O)O[C@@H]3CO)O[C@@H]2CO)[C@H](O)[C@@H](O)[C@@H]1N[C@H]1C=C(CO)[C@@H](O)[C@H](O)[C@H]1O (some centres unmarked) | 116
Cc1ccsc1C(=CCCN1CCC[C@@H](C(=O)O)C1)c1sccc1C | 114

Study 3
Structure (SMILES): CN1CC[C@]23c4c5ccc(O)c4O[C@H]2[C@@H](O)C=C[C@H]3[C@H]1C5
Species: mouse C57BL/6J male
Relative to: vehicle
dose | time | respiration rate
10 mg/kg | 120 min | 176%
30 mg/kg | 60 min | 44%
10 mg/kg | 100 min | 150%
30 mg/kg | 40 min | 39%
30 mg/kg | 100 min | 84%
10 mg/kg | 0 min | 100%

Mixed results
SMILES | target | read-out | technique | tested at | measurement | value
COc1cc(-c2cn(C3CCc4ccccc4N(CC(F)(F)F)C3=O)nn2)ccc1-n1ccc(C)n1 (centres unmarked) | Serine/threonine-protein kinase PknB (pknB, Mycobacterium tuberculosis, UniProt P9WI81) | cell-free assay | competition with immobilised ligand | 1 µM | remaining binding | 78%

Repeated from above (study 2):
SMILES | GFP-positive cells [%]
C[C@H](CCC(=O)O)[C@H]1CC[C@H]2[C@@H]3[C@H](O)C[C@@H]4C[C@H](O)CC[C@]4(C)[C@H]3CC[C@]12C | 90.9
CN1CCCC(n2nc(Cc3ccc(Cl)cc3)c3ccccc3c2=O)CC1 (centres unmarked) | 102
Cc1nc2n(c(=O)c1CCN1CCC(c3noc4cc(F)ccc34)CC1)CCCC2O (centres unmarked) | 123
